Measurements of several laboratories.
Every numbered part comes from another study and shows a few of its results, in no order. Substitutions count along the parent as printed.

Sample 1
Target: CEP164, C-terminal peptide (human)
Technique: DHFR complementation, deep sequencing
Matrix: yeast
Notes: single substitutions, model-inferred values
Reference: wild type
Reading: higher = weaker binding
Parent: PDZK1, PDZ domain 2 (human); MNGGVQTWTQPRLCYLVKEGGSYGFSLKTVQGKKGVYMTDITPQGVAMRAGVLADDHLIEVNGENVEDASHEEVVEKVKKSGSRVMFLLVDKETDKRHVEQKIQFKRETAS; partner HNRVKVYRF
`V5E` — result for “binding free energy change”: -0.074 kcal/mol.
`G32S` — result for “binding free energy change”: 0.409 kcal/mol.
For `V46M`, “binding free energy change” read 0.563 kcal/mol.
`I41M`: “binding free energy change” 0.868 kcal/mol.
Under “binding free energy change”, `S70T` is recorded as 0.012 kcal/mol.
For `V78G`, “binding free energy change” read 1.76 kcal/mol.
`G32A`: “binding free energy change” 0.558 kcal/mol.

Sample 2
Target: BATF3, bZIP domain (human)
Technique: DHFR protein complementation
Matrix: yeast
Notes: single substitutions, most at no-binding floor
Reference: wild-type JUN-FOS pair
Reading: higher = stronger binding
Parent: JUN, bZIP domain (human); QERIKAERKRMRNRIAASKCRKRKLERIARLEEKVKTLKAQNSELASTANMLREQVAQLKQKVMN; partner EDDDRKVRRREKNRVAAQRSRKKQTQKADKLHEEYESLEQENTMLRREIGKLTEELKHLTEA
`K39N` has a binding fitness of 0.0114 natural log.
`A49L` has a binding fitness of 0.192 natural log.
With `R53H` the binding fitness was 0.0433 natural log.
The binding fitness of `E44F` is reported as 0.127 natural log.
`R53K` has a binding fitness of 0.252 natural log.
The binding fitness of `L52R` is reported as -0.364 natural log.
With `L45Y` the binding fitness was 0.0915 natural log.
The binding fitness of `A46H` is reported as 0.153 natural log.

Sample 3
Target: CCNA1, cyclin fold, Cln2 fusion (human)
Technique: yeast growth competition, sequencing
Matrix: yeast
Notes: weak parent motif
Reference: not given
Reading: higher = stronger binding
Parent: SCAPER docking peptide (human); SNARRSLNFGGST
Under “normalised enrichment score”, `G10F` is recorded as 0.5.
`T13C`: “normalised enrichment score” 0.688.
Under “normalised enrichment score”, `N2Y` is recorded as 0.346.
Under “normalised enrichment score”, `S1T` is recorded as 0.768.
`S1L`: “normalised enrichment score” 0.622.
For `A3W`, “normalised enrichment score” read 0.382.
Under “normalised enrichment score”, `L7R` is recorded as 0.223.
`T13D` — result for “normalised enrichment score”: 1.04.

Further values, each from its own experiment
`PhoQ, residues 284 288 289 292 302 303 SLANKL` gave a fold induction of 9.23 (PhoP, residues 12 14 15 18 19 NQGLL (Escherichia coli, UniProt P23836); Sort-seq, item: YFP reporter; E. coli; PhoQ-PhoP variant library, added: 10 µM Mg2+; reference: high Mg2+ state, higher = stronger signaling).

A few entries again (sample 3):
`T13C`: “normalised enrichment score” 0.688.
For `A3W`, “normalised enrichment score” read 0.382.
Under “normalised enrichment score”, `L7R` is recorded as 0.223.
